# Measured values gathered from unrelated publications.
# Every numbered part comes from another study and shows a few of its results, in no order. Values joined by “and” are separate records of one study, mostly repeats; a detail may differ.
# Sequence of UniProt Q8NFD2 (whole entry, looked up): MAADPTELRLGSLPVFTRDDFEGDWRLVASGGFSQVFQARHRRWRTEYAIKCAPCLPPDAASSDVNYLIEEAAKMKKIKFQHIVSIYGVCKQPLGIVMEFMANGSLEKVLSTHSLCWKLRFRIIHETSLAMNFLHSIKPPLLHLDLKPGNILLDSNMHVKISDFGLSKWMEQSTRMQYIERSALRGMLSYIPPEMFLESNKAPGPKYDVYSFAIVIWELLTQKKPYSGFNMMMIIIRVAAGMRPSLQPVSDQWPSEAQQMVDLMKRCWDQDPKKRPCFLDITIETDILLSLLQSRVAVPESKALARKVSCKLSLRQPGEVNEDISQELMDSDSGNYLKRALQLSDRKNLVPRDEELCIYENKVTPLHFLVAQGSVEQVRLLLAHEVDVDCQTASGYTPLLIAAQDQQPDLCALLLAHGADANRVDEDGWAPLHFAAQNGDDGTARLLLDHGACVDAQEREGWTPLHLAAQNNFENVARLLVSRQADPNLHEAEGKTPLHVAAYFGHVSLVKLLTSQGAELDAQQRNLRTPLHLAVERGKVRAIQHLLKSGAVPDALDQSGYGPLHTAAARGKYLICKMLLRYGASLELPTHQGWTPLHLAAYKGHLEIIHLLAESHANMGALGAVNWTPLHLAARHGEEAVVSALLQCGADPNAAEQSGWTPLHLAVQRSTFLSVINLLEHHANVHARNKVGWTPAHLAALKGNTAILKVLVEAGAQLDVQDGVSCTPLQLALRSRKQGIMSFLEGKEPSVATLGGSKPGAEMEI
# Sequence of UniProt P11802 (whole entry, looked up): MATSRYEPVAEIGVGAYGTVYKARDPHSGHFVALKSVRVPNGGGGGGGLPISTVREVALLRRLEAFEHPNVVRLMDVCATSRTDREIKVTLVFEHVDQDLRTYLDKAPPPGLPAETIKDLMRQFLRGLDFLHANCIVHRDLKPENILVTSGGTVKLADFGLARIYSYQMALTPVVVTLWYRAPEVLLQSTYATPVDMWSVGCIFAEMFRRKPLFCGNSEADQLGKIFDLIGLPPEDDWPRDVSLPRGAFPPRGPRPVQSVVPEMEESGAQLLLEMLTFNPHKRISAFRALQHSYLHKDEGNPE
# Sequence of UniProt O14757 (whole entry, looked up): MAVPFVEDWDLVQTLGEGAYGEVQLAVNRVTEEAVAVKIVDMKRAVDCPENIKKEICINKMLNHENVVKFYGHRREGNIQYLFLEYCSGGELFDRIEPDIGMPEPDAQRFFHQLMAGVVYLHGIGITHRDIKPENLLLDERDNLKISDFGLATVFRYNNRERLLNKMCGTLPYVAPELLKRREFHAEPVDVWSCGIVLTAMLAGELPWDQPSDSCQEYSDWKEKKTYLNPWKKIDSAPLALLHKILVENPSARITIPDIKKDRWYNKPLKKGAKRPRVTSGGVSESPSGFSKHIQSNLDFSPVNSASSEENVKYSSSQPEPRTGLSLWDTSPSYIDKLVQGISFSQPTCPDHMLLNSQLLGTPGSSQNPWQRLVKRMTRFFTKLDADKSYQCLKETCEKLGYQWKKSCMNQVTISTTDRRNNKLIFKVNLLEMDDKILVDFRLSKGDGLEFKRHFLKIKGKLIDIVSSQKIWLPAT
# Sequence of UniProt P10721 (whole entry, looked up): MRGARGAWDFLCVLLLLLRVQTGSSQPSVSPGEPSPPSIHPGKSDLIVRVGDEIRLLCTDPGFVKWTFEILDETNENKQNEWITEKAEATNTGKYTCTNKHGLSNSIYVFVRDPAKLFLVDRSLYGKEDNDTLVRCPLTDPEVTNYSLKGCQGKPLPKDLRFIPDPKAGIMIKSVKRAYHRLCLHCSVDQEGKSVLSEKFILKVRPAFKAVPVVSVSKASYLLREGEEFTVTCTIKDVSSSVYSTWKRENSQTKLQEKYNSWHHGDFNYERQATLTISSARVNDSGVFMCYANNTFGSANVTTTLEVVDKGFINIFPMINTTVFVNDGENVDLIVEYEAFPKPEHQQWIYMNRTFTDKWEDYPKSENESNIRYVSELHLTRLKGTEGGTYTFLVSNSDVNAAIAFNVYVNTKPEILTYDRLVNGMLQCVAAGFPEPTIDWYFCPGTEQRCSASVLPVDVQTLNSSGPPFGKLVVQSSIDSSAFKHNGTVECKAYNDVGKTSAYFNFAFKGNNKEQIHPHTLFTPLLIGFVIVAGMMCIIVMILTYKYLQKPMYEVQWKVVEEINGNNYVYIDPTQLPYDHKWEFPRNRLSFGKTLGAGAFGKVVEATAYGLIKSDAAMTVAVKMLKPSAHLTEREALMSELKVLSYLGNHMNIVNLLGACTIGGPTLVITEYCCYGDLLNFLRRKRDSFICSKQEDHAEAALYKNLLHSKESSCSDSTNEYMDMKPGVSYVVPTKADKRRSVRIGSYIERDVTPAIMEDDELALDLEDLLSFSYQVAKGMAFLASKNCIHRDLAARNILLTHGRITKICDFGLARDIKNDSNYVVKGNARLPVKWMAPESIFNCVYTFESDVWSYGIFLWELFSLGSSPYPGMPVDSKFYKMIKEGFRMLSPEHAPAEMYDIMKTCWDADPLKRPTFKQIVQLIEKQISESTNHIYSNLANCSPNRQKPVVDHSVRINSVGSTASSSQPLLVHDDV
# Sequence of UniProt O43683 (whole entry, looked up): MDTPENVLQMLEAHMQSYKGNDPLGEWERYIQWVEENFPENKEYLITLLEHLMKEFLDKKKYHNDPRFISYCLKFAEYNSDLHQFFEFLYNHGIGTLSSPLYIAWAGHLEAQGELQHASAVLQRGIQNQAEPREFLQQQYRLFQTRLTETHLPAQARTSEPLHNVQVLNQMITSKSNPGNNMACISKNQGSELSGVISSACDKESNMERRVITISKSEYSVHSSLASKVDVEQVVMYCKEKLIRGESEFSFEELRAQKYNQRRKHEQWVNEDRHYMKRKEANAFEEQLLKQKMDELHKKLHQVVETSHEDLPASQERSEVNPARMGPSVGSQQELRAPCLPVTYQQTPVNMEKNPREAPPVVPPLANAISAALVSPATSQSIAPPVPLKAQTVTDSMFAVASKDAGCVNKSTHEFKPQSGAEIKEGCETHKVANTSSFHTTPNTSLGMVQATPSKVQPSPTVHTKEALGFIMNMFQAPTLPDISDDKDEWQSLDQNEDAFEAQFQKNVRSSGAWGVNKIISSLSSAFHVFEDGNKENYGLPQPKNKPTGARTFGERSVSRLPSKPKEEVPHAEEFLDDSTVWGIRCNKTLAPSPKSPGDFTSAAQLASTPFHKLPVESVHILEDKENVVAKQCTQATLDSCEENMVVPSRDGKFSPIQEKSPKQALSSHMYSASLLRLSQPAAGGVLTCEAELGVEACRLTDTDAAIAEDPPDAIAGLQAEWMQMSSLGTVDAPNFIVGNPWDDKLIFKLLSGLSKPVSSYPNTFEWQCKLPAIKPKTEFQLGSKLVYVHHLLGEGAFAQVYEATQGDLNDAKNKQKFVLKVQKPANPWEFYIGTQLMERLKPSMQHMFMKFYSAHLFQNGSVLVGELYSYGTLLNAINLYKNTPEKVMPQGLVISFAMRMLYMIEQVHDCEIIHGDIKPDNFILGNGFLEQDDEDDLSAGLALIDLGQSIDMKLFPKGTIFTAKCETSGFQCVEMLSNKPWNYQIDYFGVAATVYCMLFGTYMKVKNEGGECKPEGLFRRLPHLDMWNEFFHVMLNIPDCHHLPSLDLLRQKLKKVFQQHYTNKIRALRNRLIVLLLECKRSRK

# Sample 1
# Target: Serine/threonine-protein kinase N2 (PKN2, Homo sapiens, UniProt Q16513)
# Sequence of UniProt Q16513 (whole entry, looked up): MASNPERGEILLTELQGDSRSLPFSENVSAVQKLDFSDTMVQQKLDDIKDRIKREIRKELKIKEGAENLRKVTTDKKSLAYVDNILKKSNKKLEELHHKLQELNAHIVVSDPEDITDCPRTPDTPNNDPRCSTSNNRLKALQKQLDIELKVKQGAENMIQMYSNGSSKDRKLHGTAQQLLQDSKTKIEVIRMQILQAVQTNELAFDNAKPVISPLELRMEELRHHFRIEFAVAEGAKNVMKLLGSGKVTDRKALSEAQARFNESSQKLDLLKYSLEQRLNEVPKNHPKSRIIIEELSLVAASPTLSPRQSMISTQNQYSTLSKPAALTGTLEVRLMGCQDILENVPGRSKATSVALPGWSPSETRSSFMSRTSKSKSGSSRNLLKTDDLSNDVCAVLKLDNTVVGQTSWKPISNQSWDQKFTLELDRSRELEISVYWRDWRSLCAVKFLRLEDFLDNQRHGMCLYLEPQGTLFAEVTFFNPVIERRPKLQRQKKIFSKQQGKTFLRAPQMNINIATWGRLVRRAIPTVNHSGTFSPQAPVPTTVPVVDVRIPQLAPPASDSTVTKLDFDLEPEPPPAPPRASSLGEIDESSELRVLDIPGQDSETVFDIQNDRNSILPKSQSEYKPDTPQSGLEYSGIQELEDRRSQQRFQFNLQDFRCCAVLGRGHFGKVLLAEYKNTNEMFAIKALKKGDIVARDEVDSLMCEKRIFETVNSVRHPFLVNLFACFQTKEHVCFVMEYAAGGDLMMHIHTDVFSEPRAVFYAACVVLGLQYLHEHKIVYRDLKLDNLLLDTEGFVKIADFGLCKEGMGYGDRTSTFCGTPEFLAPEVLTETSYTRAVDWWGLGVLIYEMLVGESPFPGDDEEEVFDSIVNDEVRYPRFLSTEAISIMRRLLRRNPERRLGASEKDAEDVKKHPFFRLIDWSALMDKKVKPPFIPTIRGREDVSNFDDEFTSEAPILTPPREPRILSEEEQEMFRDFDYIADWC
# Read-out: enzyme activity
# Mode: inhibitor
# Tested at: 0.5 µM
# Reference: control
Structure (SMILES),remaining activity [%]
N#CC(c1ccnc(NCCc2cccnc2)n1)c1nc2ccccc2s1 (stereo not shown),99.3
O=C(c1cc2cc(O)ccc2[nH]1)c1cc2cc(O)ccc2[nH]1,97.1
CCCCc1c(-c2ccc(O)cc2)[nH]c2nccnc12,82.4
CN(C)S(=O)(=O)c1ccc2c(c1)/C(=C/c1cc3c([nH]1)CCCC3)C(=O)N2,84.3
CC(C)n1cnc2c(Nc3cccc(Cl)c3)nc(NCCO)nc21,90.8
O=Nc1c(-c2c(O)[nH]c3ccccc23)[nH]c2ccccc12,97.8
O=C(c1ccccc1)c1ccc(N2CCOCC2)cc1O,96.8
O=C1NC(=O)c2c1c1c3ccccc3[nH]c1n1cncc21,95.5
O=C(O)/C=C/c1cc(Br)c(Br)c(Br)c1Br,95.6
NC(=O)c1cccc(-c2cc(Nc3ccc(OC(F)(F)F)cc3)ncn2)c1,89.8
O=C1c2ccccc2-c2nc3nnnn3nc21,77.1
O=c1c(-c2ccc(F)cc2)c(-c2ccncc2)[nH]n1-c1ccc(Cl)cc1,96.4
O=C1Nc2ccccc2/C1=C\c1c(Cl)[nH]c2ccccc12,96.3
c1ccc2c(-c3ccncc3)c[nH]c2c1,80.8
COc1ccc(COc2ccc(Cc3cnc(N)nc3N)cc2OC)cc1,90.9
Clc1ccc(Nc2nnc(Cc3ccncc3)c3ccccc23)cc1,99.9
COc1cccc(-c2cc(=O)c3ccccc3o2)c1N,81
c1ccc(-c2n[nH]c3c2oc2ccccc23)cc1,97.5
CNc1cc2c(Nc3cccc(Br)c3)ncnc2cn1,102
C[C@@H](N)[C@H]1CC[C@H](C(=O)Nc2ccncc2)CC1,59.7
O=C1NC(=O)c2c1c1c3ccccc3[nH]c1c1[nH]c3cc(Br)ccc3c21,88.7
c1cc(-c2cnn3cc(-c4ccc(OCCN5CCCCC5)cc4)cnc23)ccn1,69.2
Cc1ccc(S(=O)(=O)/C=C/C#N)cc1,81.5
O=C1Cc2c([nH]c3ccc(Br)cc23)-c2ccccc2N1,96.8
CN1CCN(c2ccc3nc(-c4c(N)c5c(F)cccc5[nH]c4=O)[nH]c3c2)CC1,98.5

# Sample 2
# Cell line: mouse MPNST tumor cells
# Method: high-content nuclear imaging
# Measured: cell number
# Tested at: 10 µM
# Time: 12 h
# Setting: mean of 2 replicates
# Reference: plate mean
# Reading: higher = more cells
Compound,nuclei count
NC(=O)N1c2ccccc2C=Cc2ccccc21,-1.04 z-score and 1.46 z-score
NCCCOc1cc2ccccc2cc1C(=O)NCCOc1cc2ccccc2cc1C(=O)Nc1ccc(Cl)cc1O,-6.33 z-score
CCCCCCN(CCCCCC)C(=O)Cc1c(-c2ccc(Cl)cc2)[nH]c2ccc(Cl)cc12,1.3 z-score
CCCCC(=O)NCCc1c(Cc2ccccc2)[nH]c2ccccc12,1.82 z-score
Cc1ncc(CO)c(CO)c1O,1.3 z-score
C[N+](C)(C)CCOC(N)=O,1.31 z-score and 2.82 z-score
C[C@H](O)C(=O)Nc1c(I)c(C(=O)NC(CO)CO)c(I)c(C(=O)NC(CO)CO)c1I,1.68 z-score
Cc1ccc(C(=O)C(C)CN2CCCCC2)cc1 (stereo not shown),0.618 z-score
CCOc1cc(CC(=O)N[C@@H](CC(C)C)c2ccccc2N2CCCCC2)ccc1C(=O)O,1.72 z-score and 0.33 z-score
N/C(=N\C(=O)c1nc(Cl)c(N)nc1N)NCc1ccccc1,2.5 z-score and 3.23 z-score
Clc1ccc(-c2nc3sccn3c2C=NOCc2ccc(Cl)c(Cl)c2)cc1,1.49 z-score

# Sample 3
# SMILES: O=C(O)[C@@H]1[C@@H](Cn2nnc3ccccc3c2=O)CC[C@H]1C(=O)c1ccc(OCCC2CCOCC2)cc1
# Read-out: cell-free assay
# Method: competition with immobilised ligand
# Tested at: 1 µM
target,remaining binding
"Serine/threonine-protein kinase Chk1 (CHEK1, Homo sapiens, UniProt O14757)",100%
"Cyclin-dependent kinase 4 (CDK4, Homo sapiens, UniProt P11802)",86%
"Ankyrin repeat and protein kinase domain-containing protein 1 (ANKK1, Homo sapiens, UniProt Q8NFD2)",100%
"Mitotic checkpoint serine/threonine-protein kinase BUB1 (BUB1, Homo sapiens, UniProt O43683)",73%
"Serine/threonine-protein kinase Nek4 (NEK4, Homo sapiens, UniProt P51957)",56%
"Activin receptor type-2A (ACVR2A, Homo sapiens, UniProt P27037)",100%
"Receptor-type tyrosine-protein kinase FLT3 (FLT3, Homo sapiens, UniProt P36888, R834Q)",100%
"Mast/stem cell growth factor receptor Kit (KIT, Homo sapiens, UniProt P10721)",100%

# Sample 4
# Cell line: HaCaT
# Tested at: 100 µM
# Time: 36 h
Compound,viability
O=C(C1CCCCC1)N1CC(=O)N2CCc3ccccc3C2C1 (stereo not shown),94.9%
O=c1cc(-c2ccc(O)cc2)oc2cc(O)cc(O)c12,14.3%
NS(=O)(=O)c1cc2c(cc1C(F)(F)F)NC(Cc1ccccc1)NS2(=O)=O (stereo not shown),47.4%
Cc1oncc1C(=O)Nc1ccc(C(F)(F)F)cc1,48.2%
Cc1cn([C@H]2C[C@H](N=[N+]=[N-])[C@@H](CO)O2)c(=O)[nH]c1=O,61.1%
CC(C(=O)O)c1ccc(CC2CCCC2=O)cc1 (stereo not shown),90%
CC(=O)OCC(=O)[C@@]12OC3(CCCC3)O[C@@H]1C[C@H]1[C@@H]3CCC4=CC(=O)C=C[C@]4(C)[C@@]3(F)[C@@H](O)C[C@@]12C,76.5%
C[C@@H]1O[C@@H]1P(=O)(O)O,97.7%

# For quick reference, copied from above (sample 4):
Compound,viability
O=C(C1CCCCC1)N1CC(=O)N2CCc3ccccc3C2C1 (stereo not shown),94.9%
O=c1cc(-c2ccc(O)cc2)oc2cc(O)cc(O)c12,14.3%
NS(=O)(=O)c1cc2c(cc1C(F)(F)F)NC(Cc1ccccc1)NS2(=O)=O (stereo not shown),47.4%
